Published values of several laboratories.
Lines come from different studies, so protocols differ. Numbers after ± are the reported error.
GPR84: G-protein coupled receptor 84 (GPR84, Homo sapiens, UniProt Q9NQS5)
UniProt Q9NQS5, sequence (whole entry, looked up): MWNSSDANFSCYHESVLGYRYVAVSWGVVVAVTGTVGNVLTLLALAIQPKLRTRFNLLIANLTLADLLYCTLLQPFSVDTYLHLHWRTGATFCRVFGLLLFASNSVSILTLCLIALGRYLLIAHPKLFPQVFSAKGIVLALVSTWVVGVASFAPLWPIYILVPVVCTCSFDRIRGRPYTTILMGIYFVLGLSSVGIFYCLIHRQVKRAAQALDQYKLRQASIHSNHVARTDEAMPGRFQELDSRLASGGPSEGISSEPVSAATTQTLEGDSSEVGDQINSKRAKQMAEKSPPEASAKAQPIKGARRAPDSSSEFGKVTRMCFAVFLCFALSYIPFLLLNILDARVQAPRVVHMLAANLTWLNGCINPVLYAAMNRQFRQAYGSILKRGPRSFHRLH
Sortilin: Sortilin (Homo sapiens, UniProt Q99523)
UniProt Q99523, sequence (whole entry, looked up): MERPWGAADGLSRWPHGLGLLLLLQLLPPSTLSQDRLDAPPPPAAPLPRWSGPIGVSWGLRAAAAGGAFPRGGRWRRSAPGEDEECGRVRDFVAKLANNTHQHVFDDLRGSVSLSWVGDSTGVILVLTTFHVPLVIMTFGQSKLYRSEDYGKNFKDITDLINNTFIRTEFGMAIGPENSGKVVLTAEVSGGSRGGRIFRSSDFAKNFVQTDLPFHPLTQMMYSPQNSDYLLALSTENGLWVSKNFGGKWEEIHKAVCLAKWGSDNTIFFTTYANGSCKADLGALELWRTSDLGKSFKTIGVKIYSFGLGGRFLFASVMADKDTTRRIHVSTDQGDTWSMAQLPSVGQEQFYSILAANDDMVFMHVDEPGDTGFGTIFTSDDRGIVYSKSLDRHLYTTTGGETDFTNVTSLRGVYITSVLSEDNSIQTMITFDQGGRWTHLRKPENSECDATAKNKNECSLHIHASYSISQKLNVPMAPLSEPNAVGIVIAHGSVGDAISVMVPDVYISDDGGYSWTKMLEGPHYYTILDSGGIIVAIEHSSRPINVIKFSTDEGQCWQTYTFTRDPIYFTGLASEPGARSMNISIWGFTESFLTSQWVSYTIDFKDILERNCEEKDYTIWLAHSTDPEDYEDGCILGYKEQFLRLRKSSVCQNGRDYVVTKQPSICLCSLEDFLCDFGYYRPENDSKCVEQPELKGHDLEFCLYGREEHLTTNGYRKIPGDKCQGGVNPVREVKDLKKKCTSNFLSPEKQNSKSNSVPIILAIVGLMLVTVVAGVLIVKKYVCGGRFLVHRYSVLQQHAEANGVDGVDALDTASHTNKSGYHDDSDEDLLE
AURKB: Aurora kinase B (AURKB, Homo sapiens, UniProt Q96GD4)
UniProt Q96GD4, sequence (whole entry, looked up): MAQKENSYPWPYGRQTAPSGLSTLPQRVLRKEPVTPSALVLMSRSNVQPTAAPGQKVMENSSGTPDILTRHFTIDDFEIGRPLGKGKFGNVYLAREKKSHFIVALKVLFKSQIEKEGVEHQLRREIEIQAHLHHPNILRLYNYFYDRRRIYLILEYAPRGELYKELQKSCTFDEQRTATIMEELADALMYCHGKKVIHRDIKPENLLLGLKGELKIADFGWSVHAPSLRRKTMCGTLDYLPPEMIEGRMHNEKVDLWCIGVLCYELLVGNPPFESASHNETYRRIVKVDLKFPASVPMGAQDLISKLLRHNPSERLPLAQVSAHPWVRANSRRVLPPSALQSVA
ESR2: Estrogen receptor beta (ESR2, Homo sapiens, UniProt Q92731)
UniProt Q92731, sequence (whole entry, looked up): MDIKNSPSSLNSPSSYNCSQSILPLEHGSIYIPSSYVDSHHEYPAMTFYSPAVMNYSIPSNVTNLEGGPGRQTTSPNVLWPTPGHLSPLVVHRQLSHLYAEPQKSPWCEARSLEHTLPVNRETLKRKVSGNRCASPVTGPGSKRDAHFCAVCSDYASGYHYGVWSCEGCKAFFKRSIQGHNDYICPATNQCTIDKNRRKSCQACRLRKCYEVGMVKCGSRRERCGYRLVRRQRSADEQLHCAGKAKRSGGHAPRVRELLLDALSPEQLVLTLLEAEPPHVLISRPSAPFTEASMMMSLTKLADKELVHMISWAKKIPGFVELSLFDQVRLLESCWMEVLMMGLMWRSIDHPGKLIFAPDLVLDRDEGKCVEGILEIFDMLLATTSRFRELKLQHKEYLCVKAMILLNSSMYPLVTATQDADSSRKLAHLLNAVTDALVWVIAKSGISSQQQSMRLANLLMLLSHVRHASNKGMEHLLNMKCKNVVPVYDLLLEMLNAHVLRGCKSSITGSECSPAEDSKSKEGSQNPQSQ
BRAP ZnF-UBD domain: BRCA1-associated protein, ZnF-UBD domain (BRAP, Homo sapiens, UniProt Q7Z569)
UniProt Q7Z569, sequence (whole entry, looked up): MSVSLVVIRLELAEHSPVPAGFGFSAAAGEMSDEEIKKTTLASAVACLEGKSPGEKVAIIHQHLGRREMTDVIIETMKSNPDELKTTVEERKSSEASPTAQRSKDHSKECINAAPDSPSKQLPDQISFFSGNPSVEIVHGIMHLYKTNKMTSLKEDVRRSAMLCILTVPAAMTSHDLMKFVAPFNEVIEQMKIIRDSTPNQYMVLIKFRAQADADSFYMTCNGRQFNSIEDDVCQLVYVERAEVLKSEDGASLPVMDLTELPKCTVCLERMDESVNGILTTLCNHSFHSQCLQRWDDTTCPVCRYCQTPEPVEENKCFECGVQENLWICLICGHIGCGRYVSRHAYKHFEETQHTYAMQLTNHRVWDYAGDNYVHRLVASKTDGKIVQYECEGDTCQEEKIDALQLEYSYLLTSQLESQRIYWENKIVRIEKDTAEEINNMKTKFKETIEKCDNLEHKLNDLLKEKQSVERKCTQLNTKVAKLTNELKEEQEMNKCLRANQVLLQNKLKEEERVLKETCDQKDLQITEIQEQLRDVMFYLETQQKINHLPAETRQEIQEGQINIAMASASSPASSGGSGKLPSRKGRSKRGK
VCP: Transitional endoplasmic reticulum ATPase (VCP, Homo sapiens, UniProt P55072)
UniProt P55072, sequence (whole entry, looked up): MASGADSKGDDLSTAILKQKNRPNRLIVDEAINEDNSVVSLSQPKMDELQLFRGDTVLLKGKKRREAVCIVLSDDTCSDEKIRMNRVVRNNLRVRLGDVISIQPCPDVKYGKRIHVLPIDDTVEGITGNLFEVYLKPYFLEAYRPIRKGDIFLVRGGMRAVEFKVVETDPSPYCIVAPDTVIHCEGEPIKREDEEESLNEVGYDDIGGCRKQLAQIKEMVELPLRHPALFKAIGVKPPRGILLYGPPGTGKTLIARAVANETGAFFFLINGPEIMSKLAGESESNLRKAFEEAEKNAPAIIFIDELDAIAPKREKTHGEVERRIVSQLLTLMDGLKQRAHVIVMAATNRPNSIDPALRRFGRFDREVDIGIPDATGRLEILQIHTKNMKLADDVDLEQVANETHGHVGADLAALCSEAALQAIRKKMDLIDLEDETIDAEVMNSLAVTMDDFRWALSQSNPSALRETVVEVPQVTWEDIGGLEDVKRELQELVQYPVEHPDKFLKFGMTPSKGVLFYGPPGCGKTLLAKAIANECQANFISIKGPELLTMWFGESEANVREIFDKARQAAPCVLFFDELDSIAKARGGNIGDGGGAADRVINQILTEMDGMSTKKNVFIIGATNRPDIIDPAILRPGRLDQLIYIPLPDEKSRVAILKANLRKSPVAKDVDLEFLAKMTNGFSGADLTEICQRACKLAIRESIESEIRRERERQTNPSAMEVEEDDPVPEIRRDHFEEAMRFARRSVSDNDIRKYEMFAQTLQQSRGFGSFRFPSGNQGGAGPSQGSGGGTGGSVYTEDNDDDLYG
UniProt P28335, sequence (whole entry, looked up): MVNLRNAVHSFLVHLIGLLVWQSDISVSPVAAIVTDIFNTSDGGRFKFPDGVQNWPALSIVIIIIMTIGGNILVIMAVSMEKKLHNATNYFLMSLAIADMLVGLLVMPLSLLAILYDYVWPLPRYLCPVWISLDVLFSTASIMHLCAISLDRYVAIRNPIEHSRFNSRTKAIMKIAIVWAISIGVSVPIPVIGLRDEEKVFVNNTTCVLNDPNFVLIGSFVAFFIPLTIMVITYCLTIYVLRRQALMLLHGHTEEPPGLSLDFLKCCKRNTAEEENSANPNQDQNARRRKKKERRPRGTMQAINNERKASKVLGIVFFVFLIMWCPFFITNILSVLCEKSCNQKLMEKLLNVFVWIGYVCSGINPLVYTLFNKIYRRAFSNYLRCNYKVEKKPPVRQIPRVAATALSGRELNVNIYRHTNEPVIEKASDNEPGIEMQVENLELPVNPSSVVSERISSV
UniProt Q92633, sequence (whole entry, unmodified, looked up): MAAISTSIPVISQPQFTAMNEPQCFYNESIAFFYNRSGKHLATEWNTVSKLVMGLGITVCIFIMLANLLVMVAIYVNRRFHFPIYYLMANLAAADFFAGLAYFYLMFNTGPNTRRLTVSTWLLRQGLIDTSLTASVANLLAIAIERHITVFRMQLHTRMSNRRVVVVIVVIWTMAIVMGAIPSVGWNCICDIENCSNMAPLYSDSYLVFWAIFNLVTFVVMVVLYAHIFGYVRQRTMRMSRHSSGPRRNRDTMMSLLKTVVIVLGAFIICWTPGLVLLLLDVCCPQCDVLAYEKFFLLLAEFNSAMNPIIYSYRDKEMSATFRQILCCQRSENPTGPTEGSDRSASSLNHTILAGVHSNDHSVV

O=c1cc(NCCc2ccc(Cl)cc2Cl)[nH]c(=O)[nH]1 — EC50 (GPR84; cAMP): 0.0437 µM
C=C1CN(S(=O)(=O)c2ccc(C)cc2)CCCN(CC2CCCCC2)CCCN(S(=O)(=O)c2ccc(OCCO)cc2)C1 — DC50 (Sortilin; protein expression, flow cytometry; HEK-293T expressing sortilin-GFP; 24 h): 9 ± 1 µM
CCc1ccc(CCNc2cc(=O)[nH]c(=O)[nH]2)cc1 — EC50 (GPR84; agonist): 0.123 µM
Nc1ncnc2c1ncn2[C@@H]1O[C@H](COP(=O)(O)OP(=O)(O)O)[C@@H](O)[C@H]1O — Kd (CKMT1A (Homo sapiens, UniProt P12532, E264A); microscale thermophoresis; pH 7.0, E226A mutant, no substrate): 31 ± 3 µM
CCCCCCCCCCNc1cc(O)nc(O)n1 — EC50 (GPR84; agonist): 0.363 µM
O=C(COc1cccc2c1C(=O)N(C1CCC(=O)NC1=O)C2=O)NCCCCCC(=O)N1CCN(c2ccc(Nc3nc(NC4CCCCC4)c4[nH]cnc4n3)cc2)CC1 (stereo not drawn) — DC50 (AURKB; degrader, western blot; IMR-32): 0.0061 µM
O=c1cc(-c2ccc(O)cc2)oc2c([C@@H]3O[C@H](CO)[C@@H](O)[C@H](O)[C@H]3O)c(O)cc(O)c12 — EC50 (ESR2; array formation, agonist; GFP-ERβ PRL-HeLa; 1 h): 0.107 µM
O=C(O)CNC(=O)c1ccc(S(=O)(=O)N2CCC(n3c(=O)oc4ccccc43)CC2)cc1 — Kd (BRAP ZnF-UBD domain): > 1000 µM
COc1cccc2c(NCc3ccc(O)cc3)nc(N3CCOc4ccccc43)nc12 — IC50 (VCP; enzyme activity, inhibitor): 2.4 ± 0.5 µM
O=c1[nH]c(NCCc2ccc(Br)cc2)c(Br)c(=O)[nH]1 — EC50 (GPR84; cAMP level, agonist; human cells): 0.368 ± 0.016 µM
O=C(O)CCc1cnccn1 — Kd (BRAP ZnF-UBD domain): > 1000 µM
COc1ccc([C@@H]2CC(=O)c3c(O)cc(O[C@@H]4O[C@H](CO[C@@H]5O[C@@H](C)[C@H](O)[C@@H](O)[C@H]5O)[C@@H](O)[C@H](O)[C@H]4O)cc3O2)cc1O — EC50 (ESR2; array formation, agonist; GFP-ERβ PRL-HeLa; 1 h): 0.947 µM
COc1cc(Nc2ncc3c(n2)-c2ccc(Cl)cc2C(c2c(F)cccc2OC)=NC3)ccc1C(=O)NCCOCCOCCNC(=O)COc1cccc2c1C(=O)N(C1CCC(=O)NC1=O)C2=O (stereo not drawn) — EC50 (Aurora kinase B, with INCENP (AURKB, Homo sapiens, UniProt Q96GD4); binding, kinobead competition; MV4-11 cell lysate): 2.92 µM
COc1ccc(Nc2nc(Nc3cccc(Cl)c3)nc3ccccc23)cc1 — IC50 (VCP; enzyme activity, inhibitor): 34 ± 14 µM
O=c1cc(NCCc2cccs2)[nH]c(=O)[nH]1 — EC50 (GPR84; agonist): 1.2 µM
COc1ccc(-c2nc(NCc3ccccc3)c3ccccc3n2)cc1 — IC50 (VCP; enzyme activity, inhibitor): 1.6 ± 0.3 µM
O=C(O)Cn1cnc2c(oc3ccccc32)c1=O — Kd (BRAP ZnF-UBD domain): 253 µM
CCCCCCCCCCNc1cc(=O)n(C)c(=O)[nH]1 — EC50 (GPR84; cAMP level, agonist; human cells): 1.88 ± 0.68 µM
CC(Nc1nc(N2CCOCC2)nc2ccccc12)c1ccccc1 (stereo not drawn) — IC50 (VCP; enzyme activity, inhibitor): 34 ± 10 µM
COc1ccccc1/C=C/C(=O)c1ccccc1O — EC50 (ESR2; array formation, agonist; GFP-ERβ PRL-HeLa; 1 h): 5.35 µM
O=C(O)CCc1nccs1 — Kd (BRAP ZnF-UBD domain): > 1000 µM
Fc1ccc(CNc2nc(-c3ccccc3)nc3ccccc23)cc1 — IC50 (VCP; enzyme activity, inhibitor): 11 ± 3 µM
CCCN(CCCCOCCOCCOCCOCCOCC(=O)N[C@H](C(=O)N1C[C@H](O)C[C@H]1C(=O)NCc1ccc(-c2scnc2C)cc1)C(C)(C)C)C[C@@H](C)NC(=O)c1ccc(-c2noc(C(F)(F)F)n2)cc1 — DC50 (HDAC4 (Homo sapiens, UniProt P56524); degrader, western blot; SH-SY5Y; without elacridar): 0.358 µM
COc1c(O[C@@H]2O[C@H](CO)[C@@H](O)[C@H](O)[C@H]2O)cc2occ(-c3ccc(O)cc3)c(=O)c2c1O — EC50 (ESR2; array formation, agonist; GFP-ERβ PRL-HeLa; 1 h): 0.119 µM
Clc1ccc(Nc2nc(Nc3cccc(Cl)c3)nc3ccccc23)cc1 — IC50 (VCP; enzyme activity, inhibitor): 117 ± 5.8 µM
C=C1CN(S(=O)(=O)c2ccc(C)cc2)CCCN(CC2CCCCC2)CCCN(S(=O)(=O)c2ccc(OC)cc2)C1 — DC50 (Sortilin; protein expression, flow cytometry; HEK-293T expressing sortilin-GFP; 24 h): 0.5 ± 0.2 µM
O=C(O)CNc1ccc2nncn2n1 — Kd (BRAP ZnF-UBD domain): > 1000 µM
O=c1c(O)c(-c2cc(O)c(O)c(O)c2)oc2cc(O)cc(O)c12 — EC50 (ESR2; array formation, agonist; GFP-ERβ PRL-HeLa; 1 h): 0.194 µM
O=c1cc(NCCCOc2ccccc2)[nH]c(=O)[nH]1 — EC50 (GPR84; agonist): 0.182 µM
O=C(O)CCc1nc2ccccc2c2nc(Cc3ccccc3)nn12 — Kd (BRAP ZnF-UBD domain): > 1000 µM
Cc1ncc(CSSCc2cnc(C)c(O)c2CO)c(CO)c1O.Cl.Cl — inhibition (Nedd8-cullin1 interaction; neddylation, AlphaScreen; 100 µM): 13.7%
O=C(O)Cc1nc2ccccc2[nH]1 — Kd (BRAP ZnF-UBD domain): > 1000 µM
CC1Cc2ccccc2N1NC(=O)c1ccc(Cl)c(S(N)(=O)=O)c1 (stereo not drawn) — inhibition (Nedd8-cullin1 interaction; neddylation, AlphaScreen; 100 µM): -7.6%
N#C[C@@]12C[C@@H]1[C@@H](n1cnc3c(NC4CCCC4)nc(I)nc31)[C@H](O)[C@@H]2O — Kb (HTR2C (Homo sapiens, UniProt P28335); antagonist, Gq dissociation BRET; human receptor): 0.615 µM
CCc1oc2c([C@H](CO)N(CC)CC)cccc2c1C — EC50 (LPAR1 (Homo sapiens, UniProt Q92633, W271F); Gi protein dissociation, agonist, NanoBiT; HEK293T): 0.0085 µM
COc1ccc(CCNc2cc(=O)[nH]c(=O)[nH]2)cc1 — EC50 (GPR84; cAMP): 0.0575 µM
O=c1cc(-c2ccccc2)oc2cc(O[C@@H]3O[C@H](CO[C@@H]4O[C@H](CO)[C@@H](O)[C@H](O)[C@H]4O)[C@@H](O)[C@H](O)[C@H]3O)c(O)c(O)c12 — EC50 (ESR2; array formation, agonist; GFP-ERβ PRL-HeLa; 1 h): 0.144 µM
Cc1ncsc1-c1ccc([C@H](C)NC(=O)[C@@H]2C[C@@H](O)CN2C(=O)[C@@H](NC(=O)CCCCCCCCC(=O)N(CCO)CCCOc2ccc3c(Nc4cc(CC(=O)Nc5cccc(F)c5)[nH]n4)ncnc3c2)C(C)(C)C)cc1 — DC50 (AURKB; degrader, western blot, refers to: Aurora kinase B; HPAF-II; 24 h): 0.103 µM
O=C1C[C@@H](c2ccc(O[C@@H]3O[C@H](CO)[C@@H](O)[C@H](O)[C@H]3O)cc2)Oc2cc(O)ccc21 — EC50 (ESR2; array formation, agonist; GFP-ERβ PRL-HeLa; 1 h): 0.845 µM
O=C(O)CCC(=O)Nc1cccc2ccccc12 — Kd (BRAP ZnF-UBD domain): 66 µM
O=c1c(O)c(-c2ccccc2)oc2cc(O)cc(O)c12 — EC50 (ESR2; array formation, agonist; GFP-ERβ PRL-HeLa; 1 h): 4.41 µM
Brc1ccc(-c2nc(NCc3ccccc3)c3ccccc3n2)cc1 — IC50 (VCP; enzyme activity, inhibitor): 72 ± 14 µM

For quick reference, copied from above:
O=C(COc1cccc2c1C(=O)N(C1CCC(=O)NC1=O)C2=O)NCCCCCC(=O)N1CCN(c2ccc(Nc3nc(NC4CCCCC4)c4[nH]cnc4n3)cc2)CC1 (stereo not drawn) — DC50 (AURKB; degrader, western blot; IMR-32): 0.0061 µM
O=c1cc(-c2ccc(O)cc2)oc2c([C@@H]3O[C@H](CO)[C@@H](O)[C@H](O)[C@H]3O)c(O)cc(O)c12 — EC50 (ESR2; array formation, agonist; GFP-ERβ PRL-HeLa; 1 h): 0.107 µM
O=C(O)CNC(=O)c1ccc(S(=O)(=O)N2CCC(n3c(=O)oc4ccccc43)CC2)cc1 — Kd (BRAP ZnF-UBD domain): > 1000 µM
COc1cccc2c(NCc3ccc(O)cc3)nc(N3CCOc4ccccc43)nc12 — IC50 (VCP; enzyme activity, inhibitor): 2.4 ± 0.5 µM
O=c1[nH]c(NCCc2ccc(Br)cc2)c(Br)c(=O)[nH]1 — EC50 (GPR84; cAMP level, agonist; human cells): 0.368 ± 0.016 µM
O=C(O)CCc1cnccn1 — Kd (BRAP ZnF-UBD domain): > 1000 µM
